Assay results collected from several papers.
Each line is one published result; not all experiments were run side by side. ± gives the spread as reported.

SMILES = CC[C@H](C)[C@H](N)C(=O)N[C@@H](CC(C)C)C(=O)NCC(=O)N[C@@H](CCCCN)C(=O)N[C@H](C(=O)N[C@@H](Cc1c[nH]c2ccccc12)C(=O)N[C@@H](CCC(=O)O)C(=O)NCC(=O)N[C@H](C(=O)N[C@@H](CCCCN)C(=O)N[C@@H](CO)C(=O)N[C@@H](CC(C)C)C(=O)N[C@@H](Cc1ccccc1)C(=O)N[C@@H](CS)C(N)=O)[C@@H](C)CC)[C@@H](C)CC; cell line = human red blood cells; conditions = pH 7.4; how to read = reference: Triton X-100; endpoint = EC50; result = 57.5 µM
SMILES = CC[C@H](C)[C@H](NC(=O)[C@@H](N)CCCNC(=N)N)C(=O)N[C@H](C(=O)N1CCC[C@H]1C(=O)N[C@@H](C)C(N)=O)C(C)C; cell line = RAW264.7; test = cell-based ELISA; conditions = concentration not given, 60 min, 37 °C; how to read = reference: vehicle; endpoint = p38 phosphorylation increase; result = ~50%
SMILES = COc1c(CCC[P+](c2ccccc2)(c2ccccc2)c2ccccc2)cc2c(c1OC)OCO2.[I-]; cell line = NCI-H322M; test = SRB; endpoint = LC50; result = > -4 log M
SMILES = CCCc1cc2cc(-n3nc(C)c4c3CC(C)(C)CC4=O)cc(N[C@H]3CC[C@H](O)CC3)c2c(=O)[nH]1; cell line = UMUC3; test = Western blot, item: survivin; conditions = concentration not given, 24 h; endpoint = protein level; result = no effect
SMILES = COc1ccc2c(c1)[nH]c1c(C)nccc12; cell line = DU-145; test = bisulfite pyrosequencing, item: RASSF1A promoter CpG site 27; conditions = 10 µM, 16 h; endpoint = DNA methylation; result = 80.5%
SMILES = CN1CCN(C2(CNC3CCN(c4cccc(-c5cc6cc(F)ccc6[nH]5)c4)CC3)CCC2)CC1; cell line = NCI-H522; endpoint = GI50; result = 1.72 µM
SMILES = Cc1sc2c(c1C)C(c1ccc(Cl)cc1)=N[C@@H](CC(N)=O)c1nnc(C)n1-2; cell line = HBL-1; conditions = 0.1 µM, 120 h; endpoint = viability; result = 61.1%
SMILES = CC(C)(C)C(=O)C(Oc1ccc(Cl)cc1)n1cncn1 (stereo not shown); cell line = human iPSC-derived cardiomyocytes; test = MyBP-C/MYH ratio, plate-normalised SD score; conditions = concentration not given, primary screen; how to read = direction not given; endpoint = activity score; result = 3.6
SMILES = COc1cc(CCC[P+](c2ccccc2)(c2ccccc2)c2ccccc2)c(OC)c2c1OCO2.[I-]; cell line = LOX IMVI; test = SRB; endpoint = Log10LC50; result = -4.39 log M
SMILES = Nc1ncnc2c1ncn2[C@@H]1O[C@@H]2COP(=O)(O)O[C@H]3[C@@H](O)[C@H](n4cnc5c(=O)[nH]cnc54)O[C@@H]3COP(=O)(O)O[C@H]2[C@H]1O; cell line = HFF-1; test = RNA sequencing Reactome analysis, item: Reactome R-HSA-9683610 maturation of nucleoprotein; conditions = together with: West Nile virus infection; how to read = reference: West Nile virus infected cells, upregulated pathway; endpoint = pathway fold enrichment; result = 11.2
SMILES = O=C1N(Cc2ccccc2Cl)c2ccccc2C12NN=C(c1ccccc1)S2 (stereo not shown); cell line = MDA-MB-468; test = gene expression array, item: PIGY mRNA; conditions = 10 µM, 12 h; how to read = reference: untreated, down; endpoint = fold change; result = 1.64
SMILES = CC(C)C[C@H](NC(=O)[C@H](CCc1ccccc1)NC(=O)CN1CCOCC1)C(=O)N[C@@H](Cc1ccccc1)C(=O)N[C@@H](CC(C)C)C(=O)[C@@]1(C)CO1; cell line = patient tumour conditionally reprogrammed cells; test = RNA-seq, item: EYA4 mRNA; test system = human; conditions = concentration not given; how to read = reference: DMSO; endpoint = fold change; result = -1430
SMILES = CC(C)N1CCC(NC2CCN(c3cccc(-c4cc5cc(F)ccc5[nH]4)c3)CC2)CC1; cell line = U-251; endpoint = TGI; result = 3.06 µM
SMILES = Cn1cncc1C1=CN(c2ncnc3[nH]cnc23)CCS1; cell line = HCC 2998; conditions = colon cancer; endpoint = CC50; result = > 200 µM
SMILES = Cc1cc(C(C)(C)c2ccc(O)c(C)c2)ccc1O; cell line = HepG2 spheroids; test = Hoechst flow cytometry; conditions = 1 µM, 96 h; endpoint = S phase cells; result = 9.02 ± 1.84%
SMILES = CN1CCN(S(=O)(=O)c2cc([N+](=O)[O-])ccc2N(CCOS(C)(=O)=O)CCOS(C)(=O)=O)CC1; cell line = sample DB T-ALL PDX cells; test = cell viability; test system = ex vivo; conditions = 48 h, together with: AKR1C3 inhibitor; how to read = reference: with inhibitor over alone; endpoint = IC50 fold change; result = 112

Excerpt of the above:
SMILES = Nc1ncnc2c1ncn2[C@@H]1O[C@@H]2COP(=O)(O)O[C@H]3[C@@H](O)[C@H](n4cnc5c(=O)[nH]cnc54)O[C@@H]3COP(=O)(O)O[C@H]2[C@H]1O; cell line = HFF-1; test = RNA sequencing Reactome analysis, item: Reactome R-HSA-9683610 maturation of nucleoprotein; conditions = together with: West Nile virus infection; how to read = reference: West Nile virus infected cells, upregulated pathway; endpoint = pathway fold enrichment; result = 11.2
SMILES = O=C1N(Cc2ccccc2Cl)c2ccccc2C12NN=C(c1ccccc1)S2 (stereo not shown); cell line = MDA-MB-468; test = gene expression array, item: PIGY mRNA; conditions = 10 µM, 12 h; how to read = reference: untreated, down; endpoint = fold change; result = 1.64
